Assay results gathered from unrelated publications.
Each line is one published result; not all experiments were run side by side. Several values in a cell are separate wells, animals, samples, runs or records. ± marks the error that the study gave.
TRPM8: Transient receptor potential cation channel subfamily M member 8 (TRPM8, Homo sapiens, UniProt Q7Z2W7)
CXCR4: C-X-C chemokine receptor type 4 (CXCR4, Homo sapiens, UniProt P61073)
PDE1C isoform PDE1C2: Dual specificity calcium/calmodulin-dependent 3',5'-cyclic nucleotide phosphodiesterase 1C, isoform PDE1C2 (PDE1C, Homo sapiens, UniProt Q14123)
FFAR4: Free fatty acid receptor 4 (FFAR4, Homo sapiens, UniProt Q5NUL3)
GAP50: Glideosome-associated protein 50 (GAP50, Plasmodium falciparum, UniProt Q8I2X3)
NADH dehydrogenase [ubiquinone] iron-sulfur protein 7, mitochondrial/NADH dehydrogenase [ubiquinone] iron-sulfur protein 2, mitochondrial/MT-ND1: NADH dehydrogenase [ubiquinone] iron-sulfur protein 7, mitochondrial/NADH dehydrogenase [ubiquinone] iron-sulfur protein 2, mitochondrial/MT-ND1 (Homo sapiens, UniProt O75251+O75306+P03886)
Kir3.1/Kir3.2: Kir3.1/Kir3.2 (Homo sapiens, UniProt P48051+P48549)
T1: ssDNA, aptamer; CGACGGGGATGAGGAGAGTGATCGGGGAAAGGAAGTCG

Compound = NCc1ccc(Br)cc1; target = Maoa (Rattus norvegicus, UniProt P21396); test = substrate; conditions = pH 7.5, 25 °C; measurement = kcat of deuterated substrate; result = 0.0783 ± 0.00167 s⁻¹
Compound = CC#CC(=O)Nc1cc2c(Nc3ccc(F)c(Cl)c3)ncnc2cn1; target = TRPM8; test = antagonist; test system = HEK293; conditions = 5 µM; scale = reference: control; measurement = remaining activity; result = 96.2 ± 8.81%
Compound = Cc1ccc(C(=O)NCc2ccc(CNS(=O)(=O)c3ccc(C)cc3)cc2)cc1; target = CXCR4; test = binding, inhibitor, competitive binding; test system = MDA-MB-231; conditions = with: biotinylated TN14003; measurement = EC; result = 1000 nM
Compound = Cc1cc2c(c(=O)[nH]1)C(=O)O/C2=C\c1cc(F)ccc1OC(C)C; target = PDE1C isoform PDE1C2; test = enzyme activity, inhibitor; conditions = with: 3H-cGMP substrate; measurement = ligand efficiency; result = 0.44
Compound = Nc1ncnc2c1ncn2[C@@H]1O[C@H](COP(=O)(O)OP(=O)(O)OP(=O)(O)O)[C@@H](O)[C@H]1O; target = T1, ssDNA, aptamer; test = ITC; measurement = Kd; result = 1100 nM
Compound = O=c1cc(NCc2ccccc2)[nH]c(=O)[nH]1; target = FFAR4; test = agonist, β-arrestin recruitment; test system = CHO cells; conditions = 10 µM; measurement = activation; result = 0%
Compound = O=C(NC1CC1)c1ccc(N2CCOc3ccc(Cl)cc32)s1; target = GAP50; test = binding, surface plasmon resonance; conditions = 1:1 binding model; measurement = koff; result = 0.992 s⁻¹
Compound = O=C(NC1CCC1)c1ccc2nc(-c3cccc(NS(=O)(=O)NCCN4CCCCC4)c3)cn2c1; target = Protein ENL (MLLT1, Homo sapiens, UniProt Q03111); test = degrader, immunoblot, refers to: MLLT1; conditions = 10 µM, 4 h; scale = reference: DMSO control; measurement = protein level; result = 9%
Compound = CC[C@@H]1[C@H](F)C(=O)N[C@@H]1COc1nccc2cc(C(N)=O)c(OC)cc12; target = CDK9 (Homo sapiens, UniProt P50750); test = ATP-site probe binding, ActivX profiling; test system = THP-1 cell lysate; conditions = 0.04 mM, Lys2 site; measurement = inhibition; result = 0.9%
Compound = C=CC(=O)N1CCC(C(=O)NCC(=O)N2CCN(c3nc(-c4cnc(N)nc4C(F)F)nc(N4CCOCC4)n3)CC2)CC1; target = MAP3K12 (Homo sapiens, UniProt Q12852); test = KINOMEscan; conditions = 1 µM; measurement = remaining binding; result = 97%
Compound = CC1=C(/C=C/C(C)=C/C=C/C(C)=C/C=O)C(C)(C)CCC1; target = Rhodopsin (RHO, Bos taurus, UniProt P02699, L266T); test = retinal release, Trp FRET; test system = lipid bicelles; conditions = 28 °C, L266T mutant; scale = reference: wild-type rhodopsin; measurement = relative koff; result = 1.89 ± 0.03
Compound = Cc1cc2c(c(=O)[nH]1)C(=O)O/C2=C\c1cc(F)ccc1OCCN1CCOCC1; target = PDE1C isoform PDE1C2; test = enzyme activity, inhibitor; conditions = with: 3H-cGMP substrate; measurement = ligand efficiency; result = 0.35
Compound = NC(=O)NOCCCCCCCCCC[P+](c1ccccc1)(c1ccccc1)c1ccccc1.O=C([O-])C(F)(F)F; target = NADH dehydrogenase [ubiquinone] iron-sulfur protein 7, mitochondrial/NADH dehydrogenase [ubiquinone] iron-sulfur protein 2, mitochondrial/MT-ND1; test = complex I-dependent respiration, Seahorse XF96; test system = HCT-116; conditions = 0.1 µM, 24 h; scale = reference: control; measurement = oxygen consumption rate; result = 104.1 ± 0.13%
Compound = O=C1NC(=O)c2c1c1c3ccccc3[nH]c1n1cncc21; target = TRPM8; test = antagonist; test system = HEK293; conditions = 5 µM; scale = reference: control; measurement = remaining activity; result = 99.3 ± 3.15%
Compound = O=C(O)CC1=C/C(=C\c2cccc(-c3ccc(F)cc3)n2)c2ccc(F)cc21; target = Ptgs2 (Mus musculus, UniProt Q05769); scale = reference: IC50 COX-1 over COX-2; measurement = selectivity ratio; result = 14 fold
Compound = Nc1ccc(C(=O)O)cc1; target = BEST1, with wild-type BEST1 (Homo sapiens, UniProt O76090, R218H); test = ion current, whole-cell patch clamp; test system = HEK293 co-expressing mutant and wild-type; conditions = concentration not given, voltage 0 mV; measurement = current density; result = -0.01 pA/pF and 0.01 pA/pF and -0.1 pA/pF and -0.08 pA/pF and -0.03 pA/pF and -0.09 pA/pF and -0.02 pA/pF
Compound = N=C(N)c1ccc(OCCCCCOc2ccc(C(=N)N)cc2)cc1; target = GAP50; test = binding, surface plasmon resonance; conditions = 1:1 binding model; measurement = kon; result = 39300 M⁻¹ s⁻¹
Compound = O=C(COP(=O)(O)O)[C@@H](O)[C@H](O)[C@H](O)COP(=O)(O)O; target = Large ribosomal subunit protein uL4 (Homo sapiens, UniProt P36578); test = thermal proteome profiling, refers to: RPL4; test system = HepG2 cell lysate; conditions = concentration not given, 57 over 37 °C, mean; scale = reference: compound over control; measurement = thermal stability ratio; result = 0.733
Compound = O=C(COc1ccc(C(F)(F)F)cc1C(F)(F)F)Nc1cc(C2CC2)nn1C1CCOCC1; target = Kir3.1/Kir3.2; test = thallium flux, activator; test system = HEK293; scale = reference: standard compound; measurement = Emax; result = 79%
Compound = Nc1nc2c(ncn2[C@@H]2O[C@H](COP(=O)(O)O)[C@@H](O)[C@H]2O)c(=O)[nH]1; target = GUK1 (Homo sapiens, UniProt Q16774); test = enzyme activity, NADH-coupled; conditions = 7.812 µM, with: NaCl 150 mM; measurement = reaction velocity; result = 0.0218 µM/s and -0.0209 µM/s and 0.0145 µM/s
Compound = CC(C)NCCCC[C@@H]1NC(=O)[C@H](Cc2ccc(O)cc2)NC(=O)[C@H](Cc2ccccc2)NC(=O)CC[C@H](C(=O)N[C@@H](CCCCNC(C)C)C(=O)N[C@@H](CCCCNC(=O)[C@H](CCC(=O)O)NC(=O)[C@H](CCC(=O)O)NC(=O)[C@H](CCC(=O)O)NC(=O)CN2CCN(CC(=O)O)CCN(CC(=O)O)CC2)C(N)=O)NC(=O)CNC(=O)[C@H](Cc2ccc3ccccc3c2)NC(=O)[C@@H](CCCNC(=N)N)NC1=O [fluorine-18 labelled]; target = CXCR4; test = radioligand cell uptake; test system = MM.1S cells; conditions = concentration not given; measurement = total cellular uptake; result = 2.46 ± 0.13%
Compound = O=C(COc1cc(Cl)ccc1Cl)Nc1cc(C2CCC2)nn1C1CCC(F)(F)CC1; target = Kir3.1/Kir3.2; test = thallium flux, activator; test system = HEK293; scale = reference: standard compound; measurement = Emax; result = < 10%
Compound = O=c1cc(NCCc2ccccc2Cl)[nH]c(=O)[nH]1; target = FFAR4; test = antagonist, β-arrestin recruitment; test system = CHO cells; conditions = 10 µM; measurement = inhibition; result = 9 ± 2%
Compound = CCCCC[C@H](O)/C=C/[C@H]1[C@H](O)CC(=O)[C@@H]1C/C=C\CCCC(=O)O; target = PTGER1 (Homo sapiens, UniProt P34995, Q298A); test = IP1 accumulation, agonist; test system = AD293; conditions = 1 h, EP1 Q298A mutant; measurement = Emax; result = 40.5 ± 6.34%
Compound = Cc1ccc(C(=O)Nc2ccc3ccccc3c2)o1; target = Otop1 (Mus musculus, UniProt Q80VM9); test = acid-evoked current, whole-cell patch-clamp; test system = HEK293T; conditions = concentration not given, pH 5.5, preincubated before acid; measurement = activation time constant; result = 462 ms and 569 ms and 378 ms and 582 ms and 309 ms
Compound = CCc1cc(NC(=O)COc2cccc(Cl)c2Cl)n(C2CCC(F)(F)CC2)n1; target = Kir3.1/Kir3.2; test = thallium flux, activator; test system = HEK293; scale = reference: standard compound; measurement = Emax; result = 72%
Compound = O=C(Nc1ccc(O)c(O)c1)c1cc2ccccc2oc1=O; target = MAPT (Homo sapiens, UniProt P10636); test = heparin-induced aggregation; conditions = 100 µM; scale = reference: untreated; measurement = ThS fluorescence; result = 27.6 ± 2.8%
Compound = N=C(NO)NCC[C@H](N)C(=O)O; target = Arginase (Schistosoma mansoni, UniProt Q6WVP6); test = isothermal titration calorimetry; conditions = concentration not given; measurement = binding enthalpy; result = -16 ± 0.3 kcal/mol
Compound = COc1ccc(F)cc1C(=O)NCc1ccc(-c2nn([C@@H](C)C(F)(F)F)c(N)c2C(N)=O)cc1; target = MAP3K11 (Homo sapiens, UniProt Q16584); test = kinase activity, inhibitor, HotSpot radiometric; conditions = 100 nM, with: ATP 10 µM; measurement = remaining activity; result = 91 ± 0.5%
Compound = CCCCCCCCNc1cc(=O)n(C)c(=O)n1C; target = FFAR4; test = agonist, β-arrestin recruitment; test system = CHO cells; conditions = 10 µM; scale = reference: 30 µM TUG-891; measurement = agonist effect; result = 1%
Compound = O[C@@H](c1cc(C(F)(F)F)nc2c(C(F)(F)F)cccc12)[C@H]1CCCCN1; target = GAP50; test = binding, surface plasmon resonance; conditions = 1:1 binding model; measurement = koff; result = 0.442 s⁻¹
Compound = NC(=O)NOCCCCCCCCCCCCCCCCCCCC[P+](c1ccccc1)(c1ccccc1)c1ccccc1.O=C([O-])C(F)(F)F; target = NADH dehydrogenase [ubiquinone] iron-sulfur protein 7, mitochondrial/NADH dehydrogenase [ubiquinone] iron-sulfur protein 2, mitochondrial/MT-ND1; test = complex I-dependent respiration, Seahorse XF96; test system = HCT-116; conditions = 0.5 µM, 24 h; scale = reference: control; measurement = oxygen consumption rate; result = 63.6 ± 7.46%
Compound = COc1ccc(OC)c2c(=S)c3ccccc3[nH]c12; target = TRPM8; test = antagonist; test system = HEK293; conditions = 5 µM; scale = reference: control; measurement = remaining activity; result = 104 ± 2.11%
Compound = O=c1[nH]c(NCCc2ccc(Br)cc2)c(Br)c(=O)[nH]1; target = FFAR4; test = antagonist, β-arrestin recruitment; test system = CHO cells; conditions = 10 µM; measurement = inhibition; result = 14 ± 5%
Compound = C=CC(=O)N1CCC(COCC(=O)N2CCN(c3nc(-c4cnc(N)nc4C(F)F)nc(N4CCOC[C@@H]4C)n3)CC2)CC1; target = ACVR2A (Homo sapiens, UniProt P27037); test = KINOMEscan; conditions = 1 µM; measurement = remaining binding; result = 92%
Compound = O=c1nc(SCc2cc(F)cc(C(F)(F)F)c2)nc(SCc2ccc3nc(OCCN4CCOCC4)ccc3c2)[nH]1; target = TOP2A (Homo sapiens, UniProt P11388); test = DNA cleavage; conditions = 125 µM; measurement = mean linear DNA; result = 0%
Compound = C=C1CN(S(=O)(=O)c2ccc(C)cc2)CCCN(Cc2ccccc2)CCCN(S(=O)(=O)c2ccc(C)cc2)C1; target = Protein transport protein Sec61 subunit alpha isoform 1 (Homo sapiens, UniProt P61619); test = Sec61-dependent translocation, inhibitor, refers to: CD4 signal peptide-FLuc reporter; test system = HEK293; conditions = 0.013 mM, 6 h; measurement = FLuc/RLuc ratio; result = 0.994
Compound = COc1ccc(Oc2ccc([C@@H](C)N(C)c3ncc4c(N)nc(N)nc4n3)cc2)cc1; target = GAP50; test = binding, surface plasmon resonance; conditions = 1:1 binding model; measurement = kon; result = 628 M⁻¹ s⁻¹
Compound = CC(C)CNc1cc(=O)[nH]c(=O)[nH]1; target = FFAR4; test = agonist, β-arrestin recruitment; test system = CHO cells; conditions = 10 µM; measurement = activation; result = 2 ± 1%
Compound = CCN1CCN(c2cc(N3CCN(CC)CC3)nc(NCCNc3ccnc4cc(Cl)ccc34)n2)CC1; target = Nuclear receptor subfamily 4 group A member 2, LBD (Homo sapiens, UniProt P43354); test = reporter gene, Gal4 hybrid reporter; conditions = 1 µM; scale = reference: vehicle; measurement = activation; result = 1.18 ± 0.05 fold
Compound = CCCCCCCNc1cc(=O)[nH]c(=O)[nH]1; target = FFAR4; test = antagonist, β-arrestin recruitment; test system = CHO cells; conditions = 10 µM, with: 4 µM TUG-891; measurement = inhibition; result = 18 ± 1%
Compound = CCS(=O)(=O)N1CC(CC#N)(n2cc(-c3ncnc4[nH]ccc34)cn2)C1; target = ORM1 (Homo sapiens, UniProt P02763); test = fluorescence quenching; conditions = 298 K; measurement = Gibbs free energy; result = -6.14 kcal/mol
Compound = CCN1CCC[C@H]1CNC(=O)c1c(O)c(Cl)cc(Cl)c1OC; target = G-protein coupled receptor family C group 5 member B (GPRC5B, Homo sapiens, UniProt Q9NZH0); test = β-arrestin recruitment, TANGO luminescence, refers to: GPRC5B; conditions = concentration not given; scale = reference: basal luminescence; measurement = log2 fold change; result = 0.271

Excerpt of the above:
Compound = Cc1cc2c(c(=O)[nH]1)C(=O)O/C2=C\c1cc(F)ccc1OC(C)C; target = PDE1C isoform PDE1C2; test = enzyme activity, inhibitor; conditions = with: 3H-cGMP substrate; measurement = ligand efficiency; result = 0.44
Compound = O=C(COc1ccc(C(F)(F)F)cc1C(F)(F)F)Nc1cc(C2CC2)nn1C1CCOCC1; target = Kir3.1/Kir3.2; test = thallium flux, activator; test system = HEK293; scale = reference: standard compound; measurement = Emax; result = 79%
Compound = CC(C)CNc1cc(=O)[nH]c(=O)[nH]1; target = FFAR4; test = agonist, β-arrestin recruitment; test system = CHO cells; conditions = 10 µM; measurement = activation; result = 2 ± 1%
